Results gathered from unrelated publications.
Each numbered part is a random draw from the data of one study; scales do not carry over between parts.
Sequence of UniProt Q9HBH9 (whole entry, looked up): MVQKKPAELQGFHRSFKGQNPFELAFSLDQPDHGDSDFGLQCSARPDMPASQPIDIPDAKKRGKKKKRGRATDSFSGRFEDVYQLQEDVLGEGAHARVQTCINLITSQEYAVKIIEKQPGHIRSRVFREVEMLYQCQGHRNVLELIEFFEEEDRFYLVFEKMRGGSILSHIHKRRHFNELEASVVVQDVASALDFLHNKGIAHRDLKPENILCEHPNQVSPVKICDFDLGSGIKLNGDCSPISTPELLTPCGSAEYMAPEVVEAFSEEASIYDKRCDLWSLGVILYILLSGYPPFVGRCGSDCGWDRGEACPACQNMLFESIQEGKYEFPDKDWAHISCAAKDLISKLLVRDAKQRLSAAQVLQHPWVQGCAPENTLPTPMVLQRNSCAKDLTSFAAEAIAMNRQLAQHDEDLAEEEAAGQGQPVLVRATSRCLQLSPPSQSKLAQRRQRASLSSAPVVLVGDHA
Sequence of UniProt Q8TBX8 (whole entry, looked up): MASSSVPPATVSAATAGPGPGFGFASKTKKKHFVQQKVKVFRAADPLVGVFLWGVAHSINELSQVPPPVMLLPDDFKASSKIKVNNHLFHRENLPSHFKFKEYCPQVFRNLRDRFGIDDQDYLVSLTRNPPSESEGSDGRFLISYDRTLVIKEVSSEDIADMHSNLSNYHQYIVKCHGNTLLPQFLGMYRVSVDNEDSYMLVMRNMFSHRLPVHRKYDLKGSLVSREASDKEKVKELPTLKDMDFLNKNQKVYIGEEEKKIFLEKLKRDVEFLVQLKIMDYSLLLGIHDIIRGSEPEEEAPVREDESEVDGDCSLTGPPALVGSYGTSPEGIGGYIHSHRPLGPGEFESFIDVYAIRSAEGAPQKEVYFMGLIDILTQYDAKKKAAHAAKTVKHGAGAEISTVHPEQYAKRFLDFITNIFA
Sequence of UniProt P51813 (whole entry, looked up): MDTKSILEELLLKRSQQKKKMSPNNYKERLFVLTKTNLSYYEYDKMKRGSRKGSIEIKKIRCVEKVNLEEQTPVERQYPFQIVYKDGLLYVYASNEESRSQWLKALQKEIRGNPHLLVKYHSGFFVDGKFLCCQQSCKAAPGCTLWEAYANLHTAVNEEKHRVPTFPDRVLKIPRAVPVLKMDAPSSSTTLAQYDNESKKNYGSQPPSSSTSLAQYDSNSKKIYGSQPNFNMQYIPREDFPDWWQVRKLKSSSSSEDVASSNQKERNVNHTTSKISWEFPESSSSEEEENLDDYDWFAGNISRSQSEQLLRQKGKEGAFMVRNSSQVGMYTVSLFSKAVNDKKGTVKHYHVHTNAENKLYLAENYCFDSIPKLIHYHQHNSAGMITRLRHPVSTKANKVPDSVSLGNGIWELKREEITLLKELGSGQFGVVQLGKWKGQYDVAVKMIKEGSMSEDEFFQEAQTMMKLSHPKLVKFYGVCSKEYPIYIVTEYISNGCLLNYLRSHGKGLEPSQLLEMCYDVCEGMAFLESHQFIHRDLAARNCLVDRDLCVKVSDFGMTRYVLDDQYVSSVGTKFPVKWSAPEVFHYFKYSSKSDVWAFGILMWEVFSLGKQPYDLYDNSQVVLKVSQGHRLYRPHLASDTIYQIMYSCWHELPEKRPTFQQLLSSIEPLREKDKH
Sequence of UniProt P51451 (whole entry, looked up): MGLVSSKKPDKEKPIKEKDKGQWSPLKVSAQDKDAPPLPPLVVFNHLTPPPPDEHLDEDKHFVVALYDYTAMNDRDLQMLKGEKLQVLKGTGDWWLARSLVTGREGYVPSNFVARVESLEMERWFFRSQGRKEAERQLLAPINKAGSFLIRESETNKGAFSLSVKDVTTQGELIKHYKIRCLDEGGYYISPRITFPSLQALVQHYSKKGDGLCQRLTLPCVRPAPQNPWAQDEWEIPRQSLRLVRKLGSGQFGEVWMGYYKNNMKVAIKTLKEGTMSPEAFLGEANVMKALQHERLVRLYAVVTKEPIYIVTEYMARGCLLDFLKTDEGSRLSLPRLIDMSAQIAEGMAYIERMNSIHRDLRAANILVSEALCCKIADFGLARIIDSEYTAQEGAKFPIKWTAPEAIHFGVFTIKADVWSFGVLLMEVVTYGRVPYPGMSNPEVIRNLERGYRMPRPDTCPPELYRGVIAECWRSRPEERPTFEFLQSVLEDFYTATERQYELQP
Sequence of UniProt P42338 (whole entry, looked up): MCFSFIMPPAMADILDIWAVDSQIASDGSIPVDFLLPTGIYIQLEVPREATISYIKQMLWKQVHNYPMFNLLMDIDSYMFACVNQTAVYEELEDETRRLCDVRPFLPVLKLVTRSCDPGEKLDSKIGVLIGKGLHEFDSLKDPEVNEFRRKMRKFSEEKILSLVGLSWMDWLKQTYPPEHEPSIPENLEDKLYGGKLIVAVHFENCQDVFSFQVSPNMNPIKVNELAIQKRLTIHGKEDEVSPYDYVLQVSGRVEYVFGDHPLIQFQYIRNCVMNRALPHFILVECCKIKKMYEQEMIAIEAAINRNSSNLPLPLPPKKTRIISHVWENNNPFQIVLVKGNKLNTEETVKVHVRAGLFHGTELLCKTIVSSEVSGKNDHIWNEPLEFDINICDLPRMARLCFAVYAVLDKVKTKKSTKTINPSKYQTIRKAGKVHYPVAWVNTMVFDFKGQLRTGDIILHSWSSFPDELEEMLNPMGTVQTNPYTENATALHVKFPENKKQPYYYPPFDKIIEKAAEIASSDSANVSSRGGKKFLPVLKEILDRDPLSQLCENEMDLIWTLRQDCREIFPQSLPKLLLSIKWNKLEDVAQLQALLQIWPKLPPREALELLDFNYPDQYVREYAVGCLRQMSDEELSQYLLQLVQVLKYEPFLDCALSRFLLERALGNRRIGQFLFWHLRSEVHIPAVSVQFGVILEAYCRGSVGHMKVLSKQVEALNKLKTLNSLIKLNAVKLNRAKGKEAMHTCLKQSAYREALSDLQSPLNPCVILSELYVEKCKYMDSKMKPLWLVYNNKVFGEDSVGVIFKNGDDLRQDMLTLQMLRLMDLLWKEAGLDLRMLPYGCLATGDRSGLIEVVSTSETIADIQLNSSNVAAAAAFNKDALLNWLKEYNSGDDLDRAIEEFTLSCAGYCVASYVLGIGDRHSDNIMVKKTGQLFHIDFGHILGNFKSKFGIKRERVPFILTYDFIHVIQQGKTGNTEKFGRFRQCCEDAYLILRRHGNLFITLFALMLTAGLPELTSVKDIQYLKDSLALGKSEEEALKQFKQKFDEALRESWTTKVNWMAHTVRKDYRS
Sequence of UniProt Q9HC98 (whole entry, looked up): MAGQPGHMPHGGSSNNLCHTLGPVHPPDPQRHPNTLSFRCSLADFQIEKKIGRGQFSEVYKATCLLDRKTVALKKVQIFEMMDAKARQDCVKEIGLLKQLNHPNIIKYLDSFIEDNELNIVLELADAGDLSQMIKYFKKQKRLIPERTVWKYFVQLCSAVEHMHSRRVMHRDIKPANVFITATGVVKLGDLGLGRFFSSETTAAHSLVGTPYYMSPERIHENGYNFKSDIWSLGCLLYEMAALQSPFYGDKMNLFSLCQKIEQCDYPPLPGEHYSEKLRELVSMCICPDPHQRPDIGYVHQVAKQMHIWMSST
Sequence of UniProt P42336 (whole entry, unmodified, looked up): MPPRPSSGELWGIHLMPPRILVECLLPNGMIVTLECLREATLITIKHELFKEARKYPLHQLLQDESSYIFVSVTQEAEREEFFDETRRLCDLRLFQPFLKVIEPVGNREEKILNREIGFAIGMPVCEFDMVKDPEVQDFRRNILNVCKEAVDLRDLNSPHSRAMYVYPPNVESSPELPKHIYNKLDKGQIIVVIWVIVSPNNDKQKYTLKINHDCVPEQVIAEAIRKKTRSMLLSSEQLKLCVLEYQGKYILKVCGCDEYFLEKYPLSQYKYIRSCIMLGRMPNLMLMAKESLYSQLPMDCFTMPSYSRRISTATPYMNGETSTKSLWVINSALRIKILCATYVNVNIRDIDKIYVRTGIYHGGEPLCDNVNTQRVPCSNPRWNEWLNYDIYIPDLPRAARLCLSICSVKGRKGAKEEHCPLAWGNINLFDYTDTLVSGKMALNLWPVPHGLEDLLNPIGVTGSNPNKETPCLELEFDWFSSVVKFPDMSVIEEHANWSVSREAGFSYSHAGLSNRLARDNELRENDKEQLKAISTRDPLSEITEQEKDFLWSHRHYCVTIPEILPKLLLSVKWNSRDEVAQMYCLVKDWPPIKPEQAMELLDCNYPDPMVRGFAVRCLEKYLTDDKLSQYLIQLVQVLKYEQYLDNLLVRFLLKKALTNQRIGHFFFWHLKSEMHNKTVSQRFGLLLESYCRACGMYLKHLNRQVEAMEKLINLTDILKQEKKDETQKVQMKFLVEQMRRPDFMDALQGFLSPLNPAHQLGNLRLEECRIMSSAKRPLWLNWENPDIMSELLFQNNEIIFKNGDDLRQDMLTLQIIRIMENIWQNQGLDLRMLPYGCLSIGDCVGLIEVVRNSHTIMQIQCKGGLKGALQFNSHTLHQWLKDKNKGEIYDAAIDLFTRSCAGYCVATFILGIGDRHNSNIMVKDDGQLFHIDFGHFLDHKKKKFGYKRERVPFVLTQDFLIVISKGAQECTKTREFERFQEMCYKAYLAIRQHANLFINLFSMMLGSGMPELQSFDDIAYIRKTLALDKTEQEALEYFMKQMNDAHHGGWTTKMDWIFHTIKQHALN

Study 1
Target: Calcium/calmodulin-dependent protein kinase type II subunit alpha (CAMK2A, Homo sapiens, UniProt Q9UQM7)
Sequence of UniProt Q9UQM7 (whole entry, looked up): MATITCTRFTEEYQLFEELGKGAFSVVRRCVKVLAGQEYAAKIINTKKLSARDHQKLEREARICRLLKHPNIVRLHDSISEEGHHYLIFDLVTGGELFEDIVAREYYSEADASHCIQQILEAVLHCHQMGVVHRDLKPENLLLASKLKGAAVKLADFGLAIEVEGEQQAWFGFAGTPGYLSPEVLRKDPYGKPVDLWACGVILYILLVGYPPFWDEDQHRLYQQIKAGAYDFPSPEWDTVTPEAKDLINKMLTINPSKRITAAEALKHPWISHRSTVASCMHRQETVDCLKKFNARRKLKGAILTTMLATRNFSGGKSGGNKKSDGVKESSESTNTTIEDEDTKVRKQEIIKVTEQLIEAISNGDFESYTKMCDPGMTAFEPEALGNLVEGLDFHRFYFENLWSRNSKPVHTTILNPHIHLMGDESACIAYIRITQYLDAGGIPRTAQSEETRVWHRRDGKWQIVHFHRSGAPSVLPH
Observed: enzyme activity
Action: inhibitor
Concentration: 10 µM
The inhibition of `O=C(O)/C=C(/CC(=O)O)C(=O)O` is reported as 42%.
`O=CNCC(=O)O` has an inhibition of -25%.
For `CC1(C)CC[C@]2(C(=O)O)CC[C@]3(C)C(=CC[C@@H]4[C@@]5(C)CC[C@H](O[C@@H]6OC[C@H](O)[C@H](O)[C@H]6O)[C@@](C)(CO)[C@@H]5CC[C@]43C)[C@@H]2C1`, the inhibition was 8%.
`CC(O)CC(=O)O` (centres unmarked) has an inhibition of 16%.
For `OC[C@H]1O[C@@H](OC/C=C/c2ccccc2)[C@H](O)[C@@H](O)[C@@H]1O`, the inhibition was 5%.
For `CCn1cc(C(=O)O)c(=O)c2cc(F)c(N3CCN(C)CC3)cc21`, the inhibition was 1%.
The inhibition of `CN(C)/N=N/c1nc[nH]c1C(N)=O` is reported as -2%.
With `CC(=O)O[C@H]1CC[C@]2(C)C3=C(CC[C@H]2C1(C)C)[C@]1(C)C[C@@H](O)[C@H]([C@@H](CCC=C(C)C)C(=O)O)[C@@]1(C)CC3` the inhibition was 0%.
`COc1cc(C[C@@H](C)[C@@H](C)Cc2ccc(O)c(OC)c2)ccc1O` has an inhibition of -12%.
`C[C@H]1CC[C@@]2(O)C(C)(C)[C@@H]3CC[C@@]2(C)[C@H]1C3` gave an inhibition of -4%.
With `COc1cc(C(C)=O)ccc1OCCCN1CCC(c2noc3cc(F)ccc23)CC1` the inhibition was -4%.
With `COc1cc2c(c(OC)c1OC)-c1c(cc3c(c1OC)OCO3)C[C@H](C)[C@](C)(O)C2` the inhibition was -10%.

Study 2
Structure (SMILES): Cc1ccc(NC(=O)c2ccnc(C(F)(F)F)c2)cc1-c1cc(OCCO)nc(N2CCOCC2)c1
Concentration: 1 µM
It gave 79% for remaining binding (MAP kinase-interacting serine/threonine-protein kinase 2 (MKNK2, Homo sapiens, UniProt Q9HBH9); competitive binding panel; relative to: vehicle).
For Serine/threonine-protein kinase Nek3 (NEK3, Homo sapiens, UniProt P51956); competitive binding panel; relative to: vehicle: remaining binding read 95%.
For Non-receptor tyrosine-protein kinase TNK1 (TNK1, Homo sapiens, UniProt Q13470); competitive binding panel; relative to: vehicle: remaining binding read 100%.
The remaining binding was 100% (Phosphatidylinositol 5-phosphate 4-kinase type-2 gamma (PIP4K2C, Homo sapiens, UniProt Q8TBX8); competitive binding panel, refers to: PIP5K2C; relative to: vehicle).
It gave 88% for remaining binding (Serine/threonine-protein kinase MRCK beta (CDC42BPB, Homo sapiens, UniProt Q9Y5S2); competitive binding, scanMAX; MRCKB, 1000 nM).
It gave 81% for remaining binding (Serine/threonine-protein kinase Nek6 (NEK6, Homo sapiens, UniProt Q9HC98); competitive binding panel; relative to: vehicle).
The remaining binding was 89% (Serine/threonine-protein kinase OSR1 (OXSR1, Homo sapiens, UniProt O95747); competitive binding panel, refers to: OSR1; relative to: vehicle).
For Tyrosine-protein kinase Blk (BLK, Homo sapiens, UniProt P51451); competitive binding panel; relative to: vehicle: remaining binding read 100%.
It gave 100% for remaining binding (Phosphatidylinositol 4,5-bisphosphate 3-kinase catalytic subunit beta isoform (PIK3CB, Homo sapiens, UniProt P42338); competitive binding panel; relative to: vehicle).
Cytoplasmic tyrosine-protein kinase BMX (BMX, Homo sapiens, UniProt P51813); competitive binding panel; relative to: vehicle — remaining binding: 93%.
The remaining binding was 73% (Phosphatidylinositol 4,5-bisphosphate 3-kinase catalytic subunit alpha isoform (PIK3CA, Homo sapiens, UniProt P42336, E545K); competitive binding panel; relative to: vehicle).

Study 3
Target: Serine/threonine-protein kinase D2 (PRKD2, Homo sapiens, UniProt Q9BZL6)
Observed: enzyme activity
Action: inhibitor
Concentration: 0.5 µM
Relative to: control
Construct (Q9BZL6 1-878): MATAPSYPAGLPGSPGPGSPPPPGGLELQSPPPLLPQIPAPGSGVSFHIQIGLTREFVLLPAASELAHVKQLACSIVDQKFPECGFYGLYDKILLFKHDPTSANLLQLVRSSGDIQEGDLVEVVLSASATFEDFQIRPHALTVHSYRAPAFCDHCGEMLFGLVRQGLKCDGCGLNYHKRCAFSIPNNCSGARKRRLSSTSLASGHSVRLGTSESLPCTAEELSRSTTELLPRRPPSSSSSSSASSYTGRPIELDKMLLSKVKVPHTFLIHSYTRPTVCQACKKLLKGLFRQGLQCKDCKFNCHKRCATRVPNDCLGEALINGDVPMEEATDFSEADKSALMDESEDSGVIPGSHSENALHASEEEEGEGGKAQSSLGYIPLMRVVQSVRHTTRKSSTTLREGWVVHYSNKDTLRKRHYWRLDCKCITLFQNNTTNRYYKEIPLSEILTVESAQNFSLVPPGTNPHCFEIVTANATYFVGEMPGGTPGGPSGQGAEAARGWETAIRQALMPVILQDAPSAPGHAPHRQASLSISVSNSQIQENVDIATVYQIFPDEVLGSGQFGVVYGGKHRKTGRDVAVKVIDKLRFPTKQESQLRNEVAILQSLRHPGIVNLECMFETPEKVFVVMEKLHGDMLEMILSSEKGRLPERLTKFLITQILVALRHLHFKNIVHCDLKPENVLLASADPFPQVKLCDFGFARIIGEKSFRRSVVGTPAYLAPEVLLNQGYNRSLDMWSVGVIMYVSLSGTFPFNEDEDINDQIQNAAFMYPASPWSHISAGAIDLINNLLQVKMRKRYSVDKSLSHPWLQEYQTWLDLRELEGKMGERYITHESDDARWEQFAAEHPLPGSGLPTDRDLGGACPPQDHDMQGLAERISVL
`CC(=O)O/N=C1/C(c2c(O)[nH]c3cc(Br)ccc23)=Nc2ccccc21` gave a remaining activity of 87.8%.
`CCOc1cc2ncnc(Nc3cccc(Br)c3)c2cc1OCC` gave a remaining activity of 86.9%.
`O=C1NC(=O)/C(=C/c2ccc3nccnc3c2)S1` gave a remaining activity of 104%.
The remaining activity of `CC(C)[C@H](CO)Nc1nc(Nc2cccc(Cl)c2)c2ncn(C(C)C)c2n1` is reported as 99.7%.
For `CN(C)CCCn1cc(C2=C(c3c[nH]c4ccccc34)C(=O)NC2=O)c2ccccc21`, the remaining activity was 78.8%.
`O=c1cc(N2CCOCC2)oc2c1ccc1ccccc12` gave a remaining activity of 101%.
For `CCC(=O)Nc1ccc2ncnc(Nc3cccc(Br)c3)c2c1`, the remaining activity was 85.1%.
For `COc1cc2ncnc(Nc3ccc(OCc4ccccc4)cc3)c2cc1OC`, the remaining activity was 101%.
`O=C(Nc1ccc(Cl)cc1)c1ccccc1NCc1ccncc1` gave a remaining activity of 98%.
`COc1ccc(Cl)cc1NC(=O)Nc1cc(C)nc2ccccc12` gave a remaining activity of 99.8%.
The remaining activity of `Nc1[nH]nc2nnc(-c3c(-c4ccccc4)nn4ccccc34)cc12` is reported as 54.1%.
`COc1cc2ncc(-c3ccccc3)nc2cc1OC` gave a remaining activity of 93.8%.
`CS(=O)(=O)CCNCc1ccc(-c2ccc3ncnc(Nc4ccc(OCc5cccc(F)c5)c(Cl)c4)c3c2)o1` has a remaining activity of 86.4%.
The remaining activity of `CC(C)c1nn(-c2c(Cl)cccc2Cl)c2nc(Cc3ccc(OCCO)cc3)[nH]c(=O)c12` is reported as 88.4%.
With `COc1ccc(-c2cnc3c(-c4ccsc4)cnn3c2)cc1` the remaining activity was 97.7%.
The remaining activity of `Cc1ccc(NC(=O)c2ccc(CN3CCN(C)CC3)cc2)cc1Nc1nccc(-c2cccnc2)n1` is reported as 95.1%.
`Cn1cnc2cc3c(Nc4cccc(Br)c4)ncnc3cc21` gave a remaining activity of 82.6%.
For `Cn1cc(/C=C2\C(=O)Nc3ccc(S(N)(=O)=O)cc32)c2ccccc21`, the remaining activity was 87.2%.
With `COc1cc2ncnc(N3CCN(C(=O)Nc4ccc(Oc5ccccc5)cc4)CC3)c2cc1OC` the remaining activity was 91.9%.
`CCN1/C(=C/C(C)=O)Sc2ccc(OC)cc21` gave a remaining activity of 69.4%.
With `Cc1nc(Nc2ncc(C(=O)Nc3c(C)cccc3Cl)s2)cc(N2CCN(CCO)CC2)n1` the remaining activity was 93%.

Study 4
Compound: CCNC(=O)c1cc2c(N3CCOC[C@H]3C)ccnc2n1C
Concentration: 1 µM
Relative to: DMSO
The viability was 128% (normal colon patient-derived organoid sample D).
For normal colon patient-derived organoid sample H: viability read 114%.
The viability was 115% (normal colon patient-derived organoids; CellTiter-Glo; average of five organoid lines).
The viability was 101% (normal colon patient-derived organoid sample F).
For normal colon patient-derived organoid sample E: viability read 113%.
The viability was 118% (normal colon patient-derived organoid sample G).

Some of these lines once more (study 3):
For `Cn1cc(/C=C2\C(=O)Nc3ccc(S(N)(=O)=O)cc32)c2ccccc21`, the remaining activity was 87.2%.
With `COc1cc2ncnc(N3CCN(C(=O)Nc4ccc(Oc5ccccc5)cc4)CC3)c2cc1OC` the remaining activity was 91.9%.
`CCN1/C(=C/C(C)=O)Sc2ccc(OC)cc21` gave a remaining activity of 69.4%.
With `Cc1nc(Nc2ncc(C(=O)Nc3c(C)cccc3Cl)s2)cc(N2CCN(CCO)CC2)n1` the remaining activity was 93%.
